{"data": "Assay results of several laboratories", "target": "C-X-C chemokine receptor type 4 (CXCR4, Homo sapiens, UniProt P61073)", "note": "Lines come from different studies, so protocols differ. Several values in a cell are separate wells, animals, samples, runs or records.", "chain of UniProt P61073 (whole entry, looked up)": "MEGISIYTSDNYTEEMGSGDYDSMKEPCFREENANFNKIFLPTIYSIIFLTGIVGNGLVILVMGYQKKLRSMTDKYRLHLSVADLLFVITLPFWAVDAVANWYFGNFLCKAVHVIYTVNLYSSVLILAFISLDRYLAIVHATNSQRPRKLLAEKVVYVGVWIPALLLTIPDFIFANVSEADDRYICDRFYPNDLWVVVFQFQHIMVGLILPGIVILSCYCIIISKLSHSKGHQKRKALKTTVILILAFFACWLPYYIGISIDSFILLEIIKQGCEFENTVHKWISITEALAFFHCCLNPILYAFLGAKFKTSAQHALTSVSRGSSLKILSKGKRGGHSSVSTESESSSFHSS"}
{"Compound": "CC(C)NCCCC[C@@H]1NC(=O)[C@H](Cc2ccc(O)cc2)NC(=O)[C@H](Cc2ccccc2)NC(=O)CC[C@H](C(=O)N[C@@H](CCCCNC(C)C)C(=O)N[C@@H](CCCCNC(=O)[C@H](CCC(=O)O)NC(=O)[C@H](CCC(=O)O)NC(=O)[C@H](CCC(=O)O)NC(=O)CN2CCN(CC(=O)O)CCN(CC(=O)O)CC2)C(N)=O)NC(=O)CNC(=O)[C@H](Cc2ccc3ccccc3c2)NC(=O)[C@@H](CCCNC(=N)N)NC1=O [fluorine-18 labelled]", "assay": "radioligand binding", "system": "U87.CD4.CXCR4 cells", "setting": "concentration not given, 1 h", "endpoint": "total cellular uptake", "value": "7.14% and 7.1%"}
{"Compound": "CCS(=O)(=O)c1ncc(N(Cc2ccccc2)Cc2ccco2)c(C(=O)Nc2ccc(C)cc2)n1", "assay": "arrestin recruitment, antagonist, DiscoverX arrestin", "setting": "30 µM", "how to read": "reference: untreated", "endpoint": "remaining activity", "value": "0.58% and 0.51%"}
{"Compound": "Cc1ccc(S(=O)(=O)NCc2ccc(CNC(=O)c3cccc(Cl)c3)cc2)cc1", "assay": "binding, inhibitor, competitive binding", "system": "MDA-MB-231", "setting": "together with: biotinylated TN14003", "endpoint": "EC", "value": "100 nM"}
{"Compound": "CCOc1cc(/C=C/C(=O)c2ccc(Cl)cc2)ccc1O", "assay": "arrestin recruitment, antagonist, DiscoverX arrestin", "setting": "30 µM", "how to read": "reference: control", "endpoint": "inhibition", "value": "0.03% and 0.28%"}
{"Compound": "O=C(NCc1ccc(CNS(=O)(=O)c2ccccc2)cc1)c1ccccc1Cl", "assay": "binding, inhibitor, competitive binding", "system": "MDA-MB-231", "setting": "together with: biotinylated TN14003", "endpoint": "EC", "value": "10 nM"}
{"Compound": "O=C(NCc1ccc(CNS(=O)(=O)c2ccc3c(c2)CCO3)cc1)c1cccc2c1COC2", "assay": "binding, competitor", "system": "MDA-MB-231", "setting": "semi-quantitative, together with: biotinylated TN14003", "endpoint": "effective concentration", "value": "~1000 nM"}
{"Compound": "CN1CCN(c2cc(-c3ccncc3)c(-c3ccc4ccccc4c3)nn2)CC1", "assay": "agonist, FLIPR", "setting": "12.5 µM", "endpoint": "activation", "value": "2.5%"}
{"Compound": "CCc1ccc(OCc2nnc(SCc3nc(C)no3)n2Cc2ccccc2)cc1", "assay": "arrestin recruitment, antagonist, DiscoverX arrestin", "setting": "30 µM", "how to read": "reference: control", "endpoint": "inhibition", "value": "0.53% and 0.21%"}
{"Compound": "Cn1nccc1C(=O)NCc1ccc(CNS(=O)(=O)c2ccc3c(c2)CCO3)cc1", "assay": "binding, competitor", "system": "MDA-MB-231", "setting": "semi-quantitative, together with: biotinylated TN14003", "endpoint": "effective concentration", "value": "~1000 nM"}
{"Compound": "O=C(NCc1ccc(CNS(=O)(=O)c2ccccc2)cc1)c1ccc(Cl)cc1", "assay": "binding, inhibitor, competitive binding", "system": "MDA-MB-231", "setting": "together with: biotinylated TN14003", "endpoint": "EC", "value": "100 nM"}
{"Compound": "CCc1ccc(NC(=O)c2nc(S(C)(=O)=O)ncc2N(Cc2ccccc2)Cc2ccco2)cc1", "assay": "arrestin recruitment, antagonist, DiscoverX arrestin", "setting": "30 µM", "how to read": "reference: control", "endpoint": "inhibition", "value": "0.69% and 0.76%"}
{"Compound": "Cc1ccc(S(=O)(=O)NCc2ccc(CNC(=O)c3cccc(F)c3)cc2)cc1", "assay": "binding, inhibitor, competitive binding", "system": "MDA-MB-231", "setting": "together with: biotinylated TN14003", "endpoint": "EC", "value": "1 nM"}
{"Compound": "O=C(NCc1ccc(CNS(=O)(=O)c2cccc(F)c2)cc1)c1cc2ccccn2n1", "assay": "binding, competitor", "system": "MDA-MB-231", "setting": "semi-quantitative, together with: biotinylated TN14003", "endpoint": "effective concentration", "value": "~1000 nM"}
{"Compound": "Cc1ccc(CN(Cc2ccco2)c2cnc(S(C)(=O)=O)nc2C(=O)Nc2ccc(C)cc2)cc1", "assay": "arrestin recruitment, antagonist, DiscoverX arrestin", "setting": "30 µM", "how to read": "reference: control", "endpoint": "inhibition", "value": "0.38% and 0.69%"}
{"Compound": "O=C(NCc1ccc(CNS(=O)(=O)c2ccc3c(c2)CCO3)cc1)c1cc2ccccn2n1", "assay": "binding, competitor", "system": "MDA-MB-231", "setting": "semi-quantitative, together with: biotinylated TN14003", "endpoint": "effective concentration", "value": "1 nM"}
{"Compound": "COc1ccc(-c2cc3nc(C)cc(N4CCN(c5ccccn5)CC4)n3n2)cc1OC", "assay": "arrestin recruitment, antagonist, DiscoverX arrestin", "setting": "30 µM", "how to read": "reference: control", "endpoint": "inhibition", "value": "-0.88% and -0.82%"}
{"Compound": "Cc1nnsc1C(=O)NCc1ccc(CNS(=O)(=O)c2ccc(F)c(F)c2)cc1", "assay": "binding, competitor", "system": "MDA-MB-231", "setting": "semi-quantitative, together with: biotinylated TN14003", "endpoint": "effective concentration", "value": "10 nM"}
{"Compound": "Cc1ccc(S(=O)(=O)NCc2ccc(CNC(=O)c3ccccc3C)cc2)cc1", "assay": "binding, inhibitor, competitive binding", "system": "MDA-MB-231", "setting": "together with: biotinylated TN14003", "endpoint": "EC", "value": "100 nM"}
{"Compound": "CCS(=O)(=O)c1ncc(N(Cc2ccccc2)Cc2ccco2)c(C(=O)Nc2ccccc2F)n1", "assay": "arrestin recruitment, antagonist, DiscoverX arrestin", "setting": "30 µM", "how to read": "reference: untreated", "endpoint": "remaining activity", "value": "0.24% and 0.49%"}
{"Compound": "CC(C)NCCCC[C@H](NC(=O)[C@H]1CCC(=O)N[C@@H](Cc2ccccc2)C(=O)N[C@@H](Cc2ccc(O)cc2)C(=O)N[C@@H](CCCCNC(C)C)C(=O)N[C@H](CCCNC(=N)N)C(=O)N[C@@H](Cc2ccc3ccccc3c2)C(=O)NCC(=O)N1)C(N)=O", "assay": "radioligand uptake, competitor", "system": "U87.CD4.CXCR4 cells", "setting": "75 µM, 1 h, together with: [18F]AlF-NOTA-SC", "endpoint": "inhibition", "value": "79%"}
{"Compound": "Cc1ccc(S(=O)(=O)NCc2ccc(CNC(=O)c3ccc(Cl)cc3)cc2)cc1", "assay": "binding, inhibitor, competitive binding", "system": "MDA-MB-231", "setting": "together with: biotinylated TN14003", "endpoint": "EC", "value": "10 nM"}
{"note": "For quick reference, copied from above:"}
{"Compound": "O=C(NCc1ccc(CNS(=O)(=O)c2ccccc2)cc1)c1ccccc1Cl", "assay": "binding, inhibitor, competitive binding", "system": "MDA-MB-231", "setting": "together with: biotinylated TN14003", "endpoint": "EC", "value": "10 nM"}
{"Compound": "O=C(NCc1ccc(CNS(=O)(=O)c2cccc(F)c2)cc1)c1cc2ccccn2n1", "assay": "binding, competitor", "system": "MDA-MB-231", "setting": "semi-quantitative, together with: biotinylated TN14003", "endpoint": "effective concentration", "value": "~1000 nM"}
